Published values gathered from unrelated publications.
Each line is one published result; not all experiments were run side by side. ± marks the error that the study gave.
CA1: Carbonic anhydrase 1 (CA1, Homo sapiens, UniProt P00915)
WDR5: WD repeat-containing protein 5 (WDR5, Homo sapiens, UniProt P61964)
Oprd1: Delta-type opioid receptor (Oprd1, Rattus norvegicus, UniProt P33533)
DRD2 long isoform: D(2) dopamine receptor, long isoform (DRD2, Homo sapiens, UniProt P14416)
ACHE: Acetylcholinesterase (ACHE, Homo sapiens, UniProt P22303)
OPRK1: Kappa-type opioid receptor (OPRK1, Cavia porcellus, UniProt P41144)

O=C1c2ccccc2CCCN1CCCCN1CCN(c2cccc(Cl)c2Cl)CC1  Ki (DRD3 (Homo sapiens, UniProt P35462); ligand displacement, radioligand): 1 nM
O=S(=O)(N/N=C/c1ccc(OS(=O)(=O)c2cc(Cl)ccc2Cl)cc1)c1ccc(Cl)cc1  Ki (CA1; enzyme activity, inhibitor, absorbance): 179 nM
CC[C@@H]1NC(=O)[C@H](CCCNC(=N)N)NC(=O)[C@H](NC(=O)C(C)C)CCCCNC(=O)c2cc(F)c(c(F)c2)N=Nc2c(F)cc(cc2F)C(=O)NCCNC(=O)[C@@H](Cc2ccccc2)NC1=O  Ki (WDR5; binding, inhibitor, competitive fluorescence polarization; trans isomer, 405 nm photostationary state): 831 nM
Cc1cc(O)cc(C)c1C[C@H](N)C(=O)N[C@H](CCCNC(=N)N)C(=O)N[C@@H](Cc1ccccc1)C(=O)N[C@@H](CCCCN)C(=O)NCCCCCCNC(=O)[C@H](Cc1ccccc1)NC(=O)[C@H](CC1CCCCC1)NC[C@@H]1Cc2ccccc2CN1C(=O)[C@@H](N)Cc1ccc(O)cc1  Ki (Oprd1; ligand displacement, radioligand; cell membranes): 3.5 nM
COc1ccc2c(c1)c(CCN(C)C)cn2Cc1ccccc1  Ki (DRD2 long isoform; binding, radioligand displacement; HEK293 membranes; 1 h, 37 °C, with: [3H]-raclopride): 327 ± 58 nM
Cc1cc(O)cc(C)c1C[C@H](N)C(=O)N[C@H](CCCNC(=N)N)C(=O)N[C@@H](Cc1ccccc1)C(=O)N[C@@H](CCCCN)C(=O)N[C@H]1CC[C@H](NC(=O)[C@H](Cc2ccccc2)NC(=O)[C@H](CC2CCCCC2)NC[C@@H]2Cc3ccccc3CN2C(=O)[C@@H](N)Cc2ccc(O)cc2)CC1  Ki (Oprd1; ligand displacement, radioligand; cell membranes): 5.79 nM
COc1ccc(S(=O)(=O)Oc2ccc(/C=N/NS(=O)(=O)c3cc(Cl)ccc3Cl)cc2)cc1  Ki (CA1; enzyme activity, inhibitor, absorbance): 11.5 nM
O=C(CCN1C=C/C(=C\c2sc3ccccc3[n+]2CCC(=O)NCCCCCCNc2c3c(nc4ccccc24)CCCC3)c2ccccc21)NCCCCCCNc1c2c(nc3ccccc13)CCCC2  Ki (ACHE; enzyme activity, inhibitor, Ellman; pH 8): 0.31 nM
COc1cc2c(cc1O)C(CCc1ccc(Cl)cc1)N(C)CC2 (stereo not shown)  Ki (HTR1D (Homo sapiens, UniProt P28221); cell-free assay, radioligand): 2700 nM
CC[C@@H]1NC(=O)[C@H](CCCNC(=N)N)NC(=O)[C@H](NC(=O)C(C)C)CNC(=O)c2cc(F)c(c(F)c2)N=Nc2c(F)cc(cc2F)C(=O)NCCNC(=O)[C@@H](c2ccccc2)NC1=O  Ki (WDR5; binding, inhibitor, competitive fluorescence polarization; trans isomer, 405 nm photostationary state): 43 nM
CN1CCN(c2cn(Cc3ccccc3)c3ccccc23)CC1  Ki (DRD2 long isoform; binding, radioligand displacement; HEK293 membranes; 1 h, 37 °C, with: [3H]-raclopride): 35 ± 4 nM
Cc1cc(O)cc(C)c1C[C@H](N)C(=O)N[C@@H]1C/C=C/CC[C@@H](C(N)=O)NC(=O)[C@H](Cc2ccccc2)NC(=O)[C@H](Cc2ccccc2)NC1=O  Ki (Oprd1; ligand displacement, radioligand; cell membranes): 0.286 nM
COc1ccccc1N1CCN(CCCCN2CCCc3ccccc3C2=O)CC1  Ki (ADRA1A (Homo sapiens, UniProt P35348); ligand displacement, radioligand): 7.2 nM
O=S(=O)(N/N=C/c1ccc(OS(=O)(=O)c2ccc(Cl)cc2)cc1)c1ccc(Cl)cc1  Ki (CA1; enzyme activity, inhibitor, absorbance): 370 nM
NC1CCSC1=O (stereo not shown)  Ki (CA1; enzyme activity, inhibitor, stopped-flow): > 100000 nM
CC[C@@H]1NC(=O)[C@H](CCCNC(=N)N)NC(=O)[C@H](NC(=O)C(C)C)CCCCNC(=O)c2cc(F)c(c(F)c2)N=Nc2c(F)cc(cc2F)C(=O)NCCNC(=O)[C@@H](c2ccccc2)NC1=O  Ki (WDR5; binding, inhibitor, competitive fluorescence polarization; trans isomer, 405 nm photostationary state): 394 nM
Cc1cc(O)cc(C)c1C[C@H](N)C(=O)N[C@H](CCCNC(=N)N)C(=O)N[C@@H](Cc1ccccc1)C(=O)N[C@@H](CCCCNC(=O)CN1CCN(CC(=O)O)CCN(CC(=O)O)CCN(CC(=O)O)CC1)C(N)=O  Ki (OPRK1; guinea pig): 160 ± 22 nM
C[C@@H](Cc1ccsc1)NC(=O)NC[C@H](Cc1ccc(O)cc1)N(C)C  Ki (HCRTR2 (Homo sapiens, UniProt O43614)): > 50000 nM
COC1c2cc(C(C)C)c(O)c(O)c2C23CCCC(C)(C)C2C1OC3=O (stereo not shown)  Ki (ACHE; enzyme activity, inhibitor): 7.58 nM
NC(=O)[C@@H]1CC/C=C/C[C@@H](NC(=O)[C@@H](N)Cc2ccc(O)cc2)C(=O)N[C@@H](Cc2ccccc2)C(=O)N[C@@H](Cc2ccccc2)C(=O)N1  Ki (OPRK1; ligand displacement, radioligand; cell membranes): 15.2 nM
CN(C)[C@H](CNC(=O)/C=C/c1cccc2ccccc12)Cc1ccc(O)cc1  Ki (CHRM2 (Homo sapiens, UniProt P08172); cell-free assay): 6500 nM
NC(=O)[C@@H]1CCCCC[C@@H](NC(=O)[C@@H](N)Cc2ccc(O)cc2)C(=O)N[C@@H](Cc2ccccc2)C(=O)N[C@@H](Cc2ccccc2)C(=O)N1  Ki (Oprd1; ligand displacement, radioligand; cell membranes): 2.24 nM
COc1ccc(S(=O)(=O)Oc2ccc(/C=N/NS(=O)(=O)c3ccc(Cl)cc3)cc2)cc1  Ki (CA1; enzyme activity, inhibitor, absorbance): 84.2 nM
Cc1cc(O)cc(C)c1C[C@H](N)C(=O)N[C@H](CCCNC(=N)N)C(=O)N[C@@H](Cc1ccccc1)C(=O)N[C@@H](CCCCN)C(=O)NCCCCCC(=O)N[C@@H](CCCCNC(=O)CN1CCN(CC(=O)O)CCN(CC(=O)O)CCN(CC(=O)O)CC1)C(N)=O  Ki (OPRK1; ligand displacement, radioligand; cell membranes): 185 nM
N=C(N)NCCC[C@@H]1NC(=O)[C@@H](Cc2ccc(O)cc2)NC(=O)[C@@H](CCCCN)NC(=O)[C@@H](Cc2ccccc2)NC1=O  Ki (OPRK1; ligand displacement, radioligand; cell membranes): 389 nM
Cc1cc(O)cc(C)c1C[C@H](N)C(=O)N[C@H](CCCNC(=N)N)C(=O)N[C@@H](Cc1ccccc1)C(=O)N[C@@H](CCCCN)C(=O)N[C@H]1CCCC[C@@H]1NC(=O)[C@H](Cc1ccccc1)NC(=O)[C@H](CC1CCCCC1)NC[C@@H]1Cc2ccccc2CN1C(=O)[C@@H](N)Cc1ccc(O)cc1  Ki (Oprd1; ligand displacement, radioligand; cell membranes): 21.8 nM
Cc1c(Cl)c(=O)oc2cc(OCCCCCC[Se]C#N)ccc12  Ki (CA1; enzyme activity, inhibitor, stopped-flow): > 100000 nM
O=S(=O)(F)c1cccc(S(=O)(=O)Nc2ccc(C3CC3)c(F)c2)c1  Ki (GTPase KRas (KRAS, Homo sapiens, UniProt P01116); cell-free assay): 151000 nM
CC[C@@H]1NC(=O)[C@H](CCCNC(=N)N)NC(=O)[C@H](NC(=O)C(C)C)CCNC(=O)c2cc(F)c(c(F)c2)N=Nc2c(F)cc(cc2F)C(=O)NCCNC(=O)[C@@H](Cc2ccccc2)NC1=O  Ki (WDR5; binding, inhibitor, competitive fluorescence polarization; trans isomer, 405 nm photostationary state): 79 nM
Cc1cc(O)cc(C)c1C[C@H](N)C(=O)N[C@H](CCCNC(=N)N)C(=O)N[C@@H](Cc1ccccc1)C(=O)N(C)CC(=O)N(C)Cc1cc(C(F)(F)F)cc(C(F)(F)F)c1  Ki (OPRD1 (Homo sapiens, UniProt P41143, Y308F)): 13 nM
COc1ccc(-n2nc3c4cc(Cl)ccc4[nH]cc-3c2=O)cc1  Ki (Gabrg2/Gabra6, α6+/γ2− interface (Rattus norvegicus, UniProt P18508+P30191); rat cerebellar membranes; with: [3H]Ro15-4513, diazepam 50 mM): 0.55 ± 0.04 nM
Cc1cc(O)cc(C)c1CCC(=O)N[C@@H]1C/C=C/CC[C@@H](C(N)=O)NC(=O)[C@H](Cc2ccccc2)NC(=O)[C@H](Cc2ccccc2)NC1=O  Ki (OPRK1; ligand displacement, radioligand; cell membranes): > 500 nM
COc1ccc2c(c1)c(CCN(C)C)cn2C(=O)c1ccccc1  Ki (HTR1A (Homo sapiens, UniProt P08908); ligand displacement, radioligand; cell membranes): 686 nM
COc1c(C(C)C)cc2c(c1O)[C@@]1(C(=O)O)CCCC(C)(C)C1CC2 (stereo partly shown)  Ki (Cholinesterase (BCHE, Homo sapiens, UniProt P06276); enzyme activity, inhibitor, absorbance): 1.27 nM

A few entries again:
O=S(=O)(N/N=C/c1ccc(OS(=O)(=O)c2cc(Cl)ccc2Cl)cc1)c1ccc(Cl)cc1  Ki (CA1; enzyme activity, inhibitor, absorbance): 179 nM
CC[C@@H]1NC(=O)[C@H](CCCNC(=N)N)NC(=O)[C@H](NC(=O)C(C)C)CCCCNC(=O)c2cc(F)c(c(F)c2)N=Nc2c(F)cc(cc2F)C(=O)NCCNC(=O)[C@@H](Cc2ccccc2)NC1=O  Ki (WDR5; binding, inhibitor, competitive fluorescence polarization; trans isomer, 405 nm photostationary state): 831 nM
Cc1cc(O)cc(C)c1C[C@H](N)C(=O)N[C@H](CCCNC(=N)N)C(=O)N[C@@H](Cc1ccccc1)C(=O)N[C@@H](CCCCN)C(=O)NCCCCCCNC(=O)[C@H](Cc1ccccc1)NC(=O)[C@H](CC1CCCCC1)NC[C@@H]1Cc2ccccc2CN1C(=O)[C@@H](N)Cc1ccc(O)cc1  Ki (Oprd1; ligand displacement, radioligand; cell membranes): 3.5 nM
